Experimental data of several laboratories.
Compare with care: the assays were run in different laboratories. Numbers after ± are the reported error.
Alpha-carbonic anhydrase: Alpha-carbonic anhydrase (Enterococcus faecium, UniProt Q3XYE8)
CGAS catalytic domain; with DNA: Cyclic GMP-AMP synthase, catalytic domain; with DNA (CGAS, Homo sapiens, UniProt Q8N884)
PYL8: PYL8 (Arabidopsis thaliana, UniProt Q9FGM1)
USP49 ZnF-UBD domain: Ubiquitin carboxyl-terminal hydrolase 49, ZnF-UBD domain (USP49, Homo sapiens, UniProt Q70CQ1)
OMA1: Metalloendopeptidase OMA1, mitochondrial (OMA1, Homo sapiens, UniProt Q96E52)

COc1cc(F)c([C@@H]2CNC(=O)[C@H]2NC(=O)Nc2ccccc2)c(F)c1 — EC50 (Formyl peptide receptor 2 (Mus musculus, UniProt O88536); Gαi2 activation, agonist, BRET; HEK293 expressing mouse FPR2): 0.001 µM
CC1CCCCC1CC(=O)Nc1nnc(S(N)(=O)=O)s1 (stereo not drawn) — Ki (Alpha-carbonic anhydrase; CO2 hydration, inhibitor, stopped-flow kinetics): 0.0091 µM
Cc1nn(-c2nc3c(F)cc(F)cc3s2)c(O)c1C(c1ccccc1C(F)(F)F)c1c(C)nn(-c2nc3c(F)cc(F)cc3s2)c1O — EC50 (CGAS catalytic domain; with DNA; cGAS phase separation, inhibitor): 5.78 µM
O=C(O)c1cccnc1Nc1cccc(C(F)(F)F)c1 — EC50 (BK channel alpha subunit (Cavia porcellus, UniProt A0A286XP95); delayed rectifier K+ current, activator; dispersed vascular smooth muscle cells, guinea pig, MA arteriole; at +40 mV): 246 µM
O=C(COP(=O)(O)O)[C@@H](O)[C@H](O)[C@H](O)COP(=O)(O)O — EC50 (Pyruvate kinase PKM (PKM, Homo sapiens, UniProt P14618); enzyme activity, activator; with AIM): 0.246 ± 0.085 µM
Cc1nn(-c2nc3ccccc3s2)c(O)c1C(c1ccccc1C(=O)O)c1c(C)nn(-c2nc3ccccc3s2)c1O — EC50 (CGAS catalytic domain; with DNA; cGAS-DNA phase separation, inhibitor): 0.277 µM
O=C(Cc1cc(C2CC2)c(-n2cc(CNC(=O)c3ccc4ccccc4n3)nn2)c(C2CC2)c1)NC1(C(=O)O)CCCCC1 — EC50 (PYL8; phosphatase activity recovery, antagonist; with: HAB1, ABA 5000 nM): 0.202 ± 0.046 µM
CCn1c(-c2nc3ccc(C(=O)N4CCCC(N)C4)cc3n2C)cc2ccccc21 (stereo not drawn) — EC50 (Acetylcholine receptor subunit alpha (CHRNA1, Homo sapiens, UniProt P02708); agonist, intracellular Ca2+ fluorescence): > 50.1 µM
Cc1cccc(C(=O)NCc2cn(-c3c(C4CC4)cc(CC(=O)NC4(C(=O)O)CCCCC4)cc3C3CC3)nn2)n1 — EC50 (PYL8; phosphatase activity recovery, antagonist; with: HAB1, ABA 5000 nM): 0.42 ± 0.118 µM
O=C(Nc1ccn(Cc2ccc(O)cc2C(F)(F)F)n1)c1c(F)cccc1F — EC50 (Potassium voltage-gated channel subfamily KQT member 3 (KCNQ3, Homo sapiens, UniProt O43525); channel activity, agonist; cells overexpressing channel): > 10 µM
NS(=O)(=O)c1nnc(NC(=O)CN2CC3CCC(C2)O3)s1 — Ki (Alpha-carbonic anhydrase; CO2 hydration, inhibitor, stopped-flow kinetics): 0.0087 µM
CCCCCCCCCCCCC/C=C/[C@@H](O)[C@@H](N)COP(=O)(O)O — EC50 (Sphingosine 1-phosphate receptor 4 (S1PR4, Homo sapiens, UniProt O95977); agonist, cell-based): 0.251 µM
COc1cc(Nc2ncc3c(n2)-c2ccc(Cl)cc2C(c2c(F)cccc2OC)=NC3)ccc1C(=O)NCCOCCOCCNC(=O)COc1cccc2c1C(=O)N(C1CCC(=O)NC1=O)C2=O (stereo not drawn) — EC50 (Interleukin-1 receptor-associated kinase 3 (IRAK3, Homo sapiens, UniProt Q9Y616); binding, kinobead competition; MV4-11 cell lysate): > 30 µM
CCCCC[C@H](O)/C=C/[C@H]1[C@H](O)CC(=O)[C@@H]1C/C=C\CCCC(=O)O — EC50 (Prostaglandin E2 receptor EP1 subtype (PTGER1, Homo sapiens, UniProt P34995, E134A); IP1 accumulation, agonist; AD293; EP1 E134A mutant): 0.00113 µM
COc1cc2oc(=O)cc(C)c2cc1CCC(=O)O — Kd (USP49 ZnF-UBD domain): 86.2 µM
CC(=O)c1cc([N+](=O)[O-])c(Sc2cccc(Cl)c2Cl)s1 — EC50 (Ubiquitin carboxyl-terminal hydrolase 15 (USP15, Homo sapiens, UniProt Q9Y4E8); enzyme activity, inhibitor): > 50 µM
O=C(Cc1cc(C2CC2)c(-n2cc(CNC(=O)c3cccc4c3OC(F)(F)O4)nn2)c(C2CC2)c1)NC1(C(=O)O)CCCCC1 — EC50 (PYL8; phosphatase activity recovery, antagonist; with: HAB1, ABA 5000 nM): 0.303 ± 0.052 µM
CC/C(=C(\c1ccccc1)c1ccc(OCCN(C)C)cc1)c1ccccc1 — EC50 (OMA1; luciferase reporter activation, Luke-S1 protease reporter; human cells): 7.6 µM
O=C(Cc1cc(C2CC2)c(-n2cc(CNC(=O)c3ccc(Br)o3)nn2)c(C2CC2)c1)NC1(C(=O)O)CCCCC1 — EC50 (PYL8; phosphatase activity recovery, antagonist; with: HAB1, ABA 5000 nM): 0.596 ± 0.114 µM
O=C(O)CCc1cn2cccnc2n1 — Kd (USP49 ZnF-UBD domain): > 1000 µM
C[C@H](CCC(C)(C)O)[C@H]1CC[C@H]2[C@@H]3CC=C4C[C@@](C)(O)CC[C@]4(C)[C@H]3CC[C@]12C — EC50 (Glutamate NMDA receptor; GRIN1/GRIN2B (GRIN1/GRIN2B, Homo sapiens, UniProt Q05586+Q13224); ion current, positive modulator, automated patch clamp; HEK293 (stable line); with: glutamate 0.8 µM and glycine): 0.112 µM
O=C(Cc1cc(C2CC2)c(-n2cc(CNC(=O)c3csc(Br)c3)nn2)c(C2CC2)c1)NC1(C(=O)O)CCCCC1 — EC50 (PYL8; phosphatase activity recovery, antagonist; with: HAB1, ABA 5000 nM): 0.287 ± 0.033 µM
CCn1c(-c2nc3cc(C(=O)N4CCC[C@@H](N)C4)cc(OC)c3n2C)cc2cccnc21 — EC50 (Cannabinoid receptor 2 (CNR2, Homo sapiens, UniProt P34972); agonist, yeast FDGlu reporter; yeast): > 31.6 µM
O=C(Cc1cc(C2CC2)c(-n2cc(CNC(=O)c3cnc(Br)s3)nn2)c(C2CC2)c1)NC1(C(=O)O)CCCCC1 — EC50 (PYL8; phosphatase activity recovery, antagonist; with: HAB1, ABA 5000 nM): 0.573 ± 0.131 µM
Cc1cc(Nc2ncc(Cl)c(Nc3ccccc3S(=O)(=O)C(C)C)n2)c(OC(C)C)cc1C1CCNCC1 — EC50 (OMA1; luciferase reporter activation, Luke-S1 protease reporter; human cells): 10.6 µM
O=C(Cc1cc(C2CC2)c(-n2cc(CNC(=O)c3ccc(Cl)s3)nn2)c(C2CC2)c1)NC1(C(=O)O)CCCCC1 — EC50 (PYL8; phosphatase activity recovery, antagonist; with: HAB1, ABA 5000 nM): 0.581 ± 0.078 µM
NS(=O)(=O)c1cccc(Cc2c(-c3ccc(F)c(F)c3)[nH]n(-c3nc(C(=O)O)cs3)c2=O)c1 — EC50 (L-lactate dehydrogenase A chain (LDHA, Homo sapiens, UniProt P00338); CETSA thermal stabilisation; HEK293; 3.5 min, 71 °C): > 50 µM

Excerpt of the above:
Cc1cc(Nc2ncc(Cl)c(Nc3ccccc3S(=O)(=O)C(C)C)n2)c(OC(C)C)cc1C1CCNCC1 — EC50 (OMA1; luciferase reporter activation, Luke-S1 protease reporter; human cells): 10.6 µM
NS(=O)(=O)c1nnc(NC(=O)CN2CC3CCC(C2)O3)s1 — Ki (Alpha-carbonic anhydrase; CO2 hydration, inhibitor, stopped-flow kinetics): 0.0087 µM
O=C(O)CCc1cn2cccnc2n1 — Kd (USP49 ZnF-UBD domain): > 1000 µM
